Measurements gathered from unrelated publications.
Numbered parts are unrelated; each lists some results of a single study. Positions count from the first letter of the parent shown.
Sequence of UniProt P07948 (whole entry, looked up): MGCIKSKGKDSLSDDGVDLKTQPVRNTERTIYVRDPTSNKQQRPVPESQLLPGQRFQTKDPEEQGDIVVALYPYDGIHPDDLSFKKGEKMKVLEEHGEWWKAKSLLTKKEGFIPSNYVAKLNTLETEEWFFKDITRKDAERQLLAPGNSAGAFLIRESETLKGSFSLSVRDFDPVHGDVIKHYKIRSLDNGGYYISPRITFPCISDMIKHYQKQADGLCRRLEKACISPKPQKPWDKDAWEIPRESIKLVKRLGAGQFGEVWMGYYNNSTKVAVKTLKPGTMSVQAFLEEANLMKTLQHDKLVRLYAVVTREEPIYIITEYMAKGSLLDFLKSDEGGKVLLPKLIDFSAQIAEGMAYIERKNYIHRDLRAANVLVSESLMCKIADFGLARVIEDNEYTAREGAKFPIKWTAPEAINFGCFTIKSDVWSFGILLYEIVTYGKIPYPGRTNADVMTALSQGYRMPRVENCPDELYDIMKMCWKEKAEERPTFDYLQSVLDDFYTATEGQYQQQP
Sequence of UniProt P00519 (whole entry, unmodified, looked up): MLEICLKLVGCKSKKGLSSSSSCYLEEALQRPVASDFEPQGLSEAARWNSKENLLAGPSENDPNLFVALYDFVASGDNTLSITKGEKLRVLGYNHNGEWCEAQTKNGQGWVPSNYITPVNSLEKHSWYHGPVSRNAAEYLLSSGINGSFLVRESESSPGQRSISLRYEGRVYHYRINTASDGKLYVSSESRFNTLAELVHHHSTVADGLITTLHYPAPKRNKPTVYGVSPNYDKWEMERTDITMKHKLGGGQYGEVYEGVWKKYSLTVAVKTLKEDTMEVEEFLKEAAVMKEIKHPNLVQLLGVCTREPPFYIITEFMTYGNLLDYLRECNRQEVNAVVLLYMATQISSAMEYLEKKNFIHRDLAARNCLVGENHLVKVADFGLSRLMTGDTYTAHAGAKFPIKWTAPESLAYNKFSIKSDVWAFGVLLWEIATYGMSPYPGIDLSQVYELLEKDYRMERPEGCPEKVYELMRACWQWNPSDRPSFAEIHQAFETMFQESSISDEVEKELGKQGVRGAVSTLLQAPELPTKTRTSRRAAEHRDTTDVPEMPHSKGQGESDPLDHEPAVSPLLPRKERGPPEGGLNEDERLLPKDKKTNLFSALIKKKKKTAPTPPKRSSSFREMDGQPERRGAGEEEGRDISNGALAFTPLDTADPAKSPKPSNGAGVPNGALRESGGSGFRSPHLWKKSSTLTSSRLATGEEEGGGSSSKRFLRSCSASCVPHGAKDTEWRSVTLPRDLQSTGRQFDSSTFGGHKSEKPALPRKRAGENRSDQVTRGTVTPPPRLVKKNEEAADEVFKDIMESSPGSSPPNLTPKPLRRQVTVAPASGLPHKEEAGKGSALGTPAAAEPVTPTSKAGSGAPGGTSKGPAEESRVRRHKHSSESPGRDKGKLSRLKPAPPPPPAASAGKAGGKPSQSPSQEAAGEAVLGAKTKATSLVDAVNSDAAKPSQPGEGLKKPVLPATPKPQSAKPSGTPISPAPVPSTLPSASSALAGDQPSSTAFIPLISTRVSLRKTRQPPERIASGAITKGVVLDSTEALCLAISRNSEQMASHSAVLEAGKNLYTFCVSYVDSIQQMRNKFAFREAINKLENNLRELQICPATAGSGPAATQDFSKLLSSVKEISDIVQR
Sequence of UniProt Q99759 (whole entry, looked up): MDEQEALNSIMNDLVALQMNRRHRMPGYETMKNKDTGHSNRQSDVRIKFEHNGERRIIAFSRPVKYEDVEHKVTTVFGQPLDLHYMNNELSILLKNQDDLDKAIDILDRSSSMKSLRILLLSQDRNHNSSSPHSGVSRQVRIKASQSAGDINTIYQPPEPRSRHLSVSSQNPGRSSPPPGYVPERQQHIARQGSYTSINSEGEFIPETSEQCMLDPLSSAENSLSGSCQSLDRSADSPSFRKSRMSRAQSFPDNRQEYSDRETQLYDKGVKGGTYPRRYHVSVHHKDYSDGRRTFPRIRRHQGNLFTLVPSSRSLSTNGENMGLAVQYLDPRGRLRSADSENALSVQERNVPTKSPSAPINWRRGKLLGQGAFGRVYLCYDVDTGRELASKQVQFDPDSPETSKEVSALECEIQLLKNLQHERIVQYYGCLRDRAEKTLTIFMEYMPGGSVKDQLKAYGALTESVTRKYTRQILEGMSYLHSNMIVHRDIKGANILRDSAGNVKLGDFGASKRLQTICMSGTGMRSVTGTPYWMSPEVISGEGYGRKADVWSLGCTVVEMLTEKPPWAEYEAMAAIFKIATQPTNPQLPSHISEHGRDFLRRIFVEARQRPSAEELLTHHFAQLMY
Sequence of UniProt Q13557 (whole entry, looked up): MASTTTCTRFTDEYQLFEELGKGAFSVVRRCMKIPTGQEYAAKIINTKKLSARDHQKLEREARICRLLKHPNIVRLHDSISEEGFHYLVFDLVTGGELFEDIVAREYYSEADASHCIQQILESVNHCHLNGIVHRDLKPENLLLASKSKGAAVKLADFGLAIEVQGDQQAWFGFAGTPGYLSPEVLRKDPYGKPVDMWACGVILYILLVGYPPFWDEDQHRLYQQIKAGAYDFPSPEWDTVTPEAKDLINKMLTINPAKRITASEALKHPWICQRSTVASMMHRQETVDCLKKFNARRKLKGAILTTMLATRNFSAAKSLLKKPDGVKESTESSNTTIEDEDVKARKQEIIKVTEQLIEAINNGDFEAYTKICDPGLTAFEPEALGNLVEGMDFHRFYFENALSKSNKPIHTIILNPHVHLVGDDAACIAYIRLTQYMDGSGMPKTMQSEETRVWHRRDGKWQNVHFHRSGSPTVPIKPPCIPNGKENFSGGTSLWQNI
Sequence of UniProt O14920 (whole entry, looked up): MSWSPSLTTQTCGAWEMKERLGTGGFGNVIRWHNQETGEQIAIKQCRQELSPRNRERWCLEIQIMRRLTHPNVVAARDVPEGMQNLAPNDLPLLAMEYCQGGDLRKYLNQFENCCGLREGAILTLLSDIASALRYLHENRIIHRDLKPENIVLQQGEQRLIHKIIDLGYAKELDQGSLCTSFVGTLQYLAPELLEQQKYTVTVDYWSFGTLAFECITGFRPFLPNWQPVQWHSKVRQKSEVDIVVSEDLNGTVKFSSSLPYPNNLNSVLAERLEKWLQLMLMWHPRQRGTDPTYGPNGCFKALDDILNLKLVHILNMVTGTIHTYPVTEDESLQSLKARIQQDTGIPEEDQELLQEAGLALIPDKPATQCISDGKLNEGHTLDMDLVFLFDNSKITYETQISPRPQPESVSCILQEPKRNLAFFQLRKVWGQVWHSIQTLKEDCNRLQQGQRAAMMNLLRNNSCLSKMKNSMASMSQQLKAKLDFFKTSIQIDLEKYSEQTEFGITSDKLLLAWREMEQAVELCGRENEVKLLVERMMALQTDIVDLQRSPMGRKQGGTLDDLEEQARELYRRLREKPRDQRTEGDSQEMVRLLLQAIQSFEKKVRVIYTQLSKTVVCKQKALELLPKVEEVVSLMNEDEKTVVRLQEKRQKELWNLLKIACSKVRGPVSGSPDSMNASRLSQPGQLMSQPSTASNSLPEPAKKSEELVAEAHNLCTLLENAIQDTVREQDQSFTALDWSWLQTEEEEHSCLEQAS
Sequence of UniProt O95747 (whole entry, looked up): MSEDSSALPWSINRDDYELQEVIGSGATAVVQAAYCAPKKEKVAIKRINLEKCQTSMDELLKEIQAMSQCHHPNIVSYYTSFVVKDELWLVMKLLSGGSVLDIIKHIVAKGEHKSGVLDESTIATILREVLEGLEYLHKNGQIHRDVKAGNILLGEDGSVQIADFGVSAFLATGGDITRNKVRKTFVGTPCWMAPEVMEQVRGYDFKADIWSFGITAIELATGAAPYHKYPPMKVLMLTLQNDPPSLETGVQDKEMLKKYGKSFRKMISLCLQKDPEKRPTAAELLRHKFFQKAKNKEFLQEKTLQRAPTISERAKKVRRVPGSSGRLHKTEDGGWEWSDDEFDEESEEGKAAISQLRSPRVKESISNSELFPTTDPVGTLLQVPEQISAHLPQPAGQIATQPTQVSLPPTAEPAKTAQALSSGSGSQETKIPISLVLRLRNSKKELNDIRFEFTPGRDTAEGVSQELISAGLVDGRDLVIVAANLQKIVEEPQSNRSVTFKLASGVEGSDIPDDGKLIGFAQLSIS

Sample 1
SMILES: CCCC(=O)Oc1ccc2[nH]c(C(=O)c3cc4ccccc4[nH]3)cc2c1
Observed: enzyme activity
Action: inhibitor
Tested at: 0.5 µM
Reference: control
target	remaining activity [%]
PRKCA (Homo sapiens, UniProt P17252)	102
CAMK2D (Homo sapiens, UniProt Q13557)	111
MAP3K3 (Homo sapiens, UniProt Q99759)	91.9
Protein kinase C beta type, isoform beta-I (PRKCB, Homo sapiens, UniProt P05771)	97.3
PRKACA (Homo sapiens, UniProt P17612)	96.6
OXSR1 (Homo sapiens, UniProt O95747)	92.4
Tyrosine-protein kinase Lyn, isoform B (LYN, Homo sapiens, UniProt P07948)	103
IKBKB (Homo sapiens, UniProt O14920)	98.7

Sample 2
Target: ABI1, truncated, D143A, DHFR fusion (Arabidopsis thaliana)
Method: DHFR PCA, deep sequencing
Medium: yeast
Notes: methotrexate growth selection, single substitutions
Added: (+)-ABA 710 µM
Reference: wild-type fitted maximum
Reading: higher = stronger binding
Starting sequence: PYL1, truncated, DHFR fusion (Arabidopsis thaliana); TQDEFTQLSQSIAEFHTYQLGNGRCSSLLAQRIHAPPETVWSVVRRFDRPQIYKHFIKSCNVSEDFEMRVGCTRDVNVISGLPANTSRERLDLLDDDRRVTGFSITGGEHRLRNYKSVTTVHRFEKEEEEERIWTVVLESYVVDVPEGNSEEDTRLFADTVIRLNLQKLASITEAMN; partner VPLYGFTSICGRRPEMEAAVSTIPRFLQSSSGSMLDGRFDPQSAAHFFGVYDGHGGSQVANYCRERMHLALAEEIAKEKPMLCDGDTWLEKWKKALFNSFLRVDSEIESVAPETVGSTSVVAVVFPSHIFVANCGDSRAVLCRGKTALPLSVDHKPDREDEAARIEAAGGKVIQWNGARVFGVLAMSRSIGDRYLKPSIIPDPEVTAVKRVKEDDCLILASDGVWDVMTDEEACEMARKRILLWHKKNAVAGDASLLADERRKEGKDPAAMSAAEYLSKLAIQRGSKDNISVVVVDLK
Change	relative binding score [%]
K168S	103
V43I	106
L82E	-2.08
G108Q	45.9
M176K	111
T154S	75.9
V121I	102
I162D	6

Sample 3
Target: PABPC1L2, full length, GST fusion (mouse, UniProt A0ABA7IW68)
Method: RNAcompete
Molecule type: RNA
Medium: in vitro
Tested at: 20 nM
Notes: 7-mer, probes averaged, single round
Reference: mean of 7-mers
Reading: higher = stronger binding
Construct (chain): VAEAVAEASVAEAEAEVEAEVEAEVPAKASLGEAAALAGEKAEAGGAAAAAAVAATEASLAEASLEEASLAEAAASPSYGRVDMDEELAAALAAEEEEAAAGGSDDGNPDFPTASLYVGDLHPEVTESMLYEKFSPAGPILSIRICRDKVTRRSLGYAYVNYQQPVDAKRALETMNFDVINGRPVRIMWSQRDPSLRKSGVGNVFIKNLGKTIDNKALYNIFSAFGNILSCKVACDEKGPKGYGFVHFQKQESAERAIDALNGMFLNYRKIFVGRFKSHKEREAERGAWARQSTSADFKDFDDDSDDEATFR
Sequence	7-mer Z-score
UUCACCA	-0.0101
UAUAUGC	-0.133
UGAAUUA	-0.168
UACUGUU	-0.271
UAGCCCA	-0.0536
GGCUAAC	0.0587
AAUAGGA	0.385
AGAUUAU	-0.104

Further values, each from its own experiment
Tested at: 1 µM
Structure (SMILES)	target	assay	conditions	how to read	remaining binding
CC(C)(O)c1cncc(-c2nc3ccc(F)cc3n2C2CC2)c1	MAPK15 (Homo sapiens, UniProt Q8TD08)	cell-free assay, competition with immobilised ligand	–	–	90%
CNC(=O)Nc1ccc2c(c1)C1(CC2)OC(=O)N(CC(=O)N(Cc2ccc(F)cc2)[C@@H](C)C(F)(F)F)C1=O (single isomer, unassigned)	ABL1 (Homo sapiens, UniProt P00519, F317I)	KINOMEscan	F317I mutant, phosphorylated	reference: control	73%

Some of these lines once more (sample 1):
target	remaining activity [%]
OXSR1 (Homo sapiens, UniProt O95747)	92.4
Tyrosine-protein kinase Lyn, isoform B (LYN, Homo sapiens, UniProt P07948)	103
CAMK2D (Homo sapiens, UniProt Q13557)	111
